Measured values gathered from unrelated publications.
Each numbered part is a random draw from the data of one study; scales do not carry over between parts. Positions count from the first letter of the parent shown.
UniProt Q15326, sequence (whole entry, looked up): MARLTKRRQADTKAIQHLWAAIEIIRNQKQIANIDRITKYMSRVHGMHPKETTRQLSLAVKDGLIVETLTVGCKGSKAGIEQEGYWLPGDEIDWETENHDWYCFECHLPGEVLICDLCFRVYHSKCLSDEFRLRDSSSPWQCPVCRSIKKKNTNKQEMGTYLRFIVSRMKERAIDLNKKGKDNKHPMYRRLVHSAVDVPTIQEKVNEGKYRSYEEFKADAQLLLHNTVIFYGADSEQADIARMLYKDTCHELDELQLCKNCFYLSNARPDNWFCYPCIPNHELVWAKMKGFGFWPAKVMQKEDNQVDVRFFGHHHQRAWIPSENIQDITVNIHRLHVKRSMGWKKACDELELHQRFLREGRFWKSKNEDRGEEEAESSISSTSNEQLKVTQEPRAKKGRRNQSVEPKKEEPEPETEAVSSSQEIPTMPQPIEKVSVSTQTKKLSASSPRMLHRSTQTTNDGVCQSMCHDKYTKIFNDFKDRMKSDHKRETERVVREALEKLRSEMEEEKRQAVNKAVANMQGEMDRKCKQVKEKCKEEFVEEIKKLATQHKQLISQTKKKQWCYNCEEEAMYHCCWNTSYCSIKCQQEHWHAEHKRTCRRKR

Block 1
Target: Probable WRKY transcription factor 33, C-terminal DNA-binding domain (WRKY33, Arabidopsis thaliana, UniProt Q8S8P5, residues 346-449)
Technique: DNA-protein interaction ELISA
Molecule type: double-stranded DNA, one strand shown
Matrix: in vitro, bacterial lysate
Tested at: not given
Notes: whole dsDNA probe, crude lysate protein
Relative to: highest signal in screen
Direction: higher = stronger binding
Residues (chain): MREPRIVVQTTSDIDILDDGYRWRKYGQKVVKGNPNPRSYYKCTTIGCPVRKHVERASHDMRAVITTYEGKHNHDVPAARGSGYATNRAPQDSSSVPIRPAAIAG
The relative absorbance of `AAAAAAGGCTGTGGCCAATGTTCGTAAAAA` is reported as 26.6 % of maximum.
With `AAAAAACTACTACCTTTGCCTAAGCGAAAA` the relative absorbance was 28.2 % of maximum.
The relative absorbance of `AAAAAATTGGCACACATGATCTCGGGAAAA` is reported as 29.2 % of maximum.
For `AAAAAAGTCATTATAACCCAAACTCTAAAA`, the relative absorbance was 52.6 % of maximum.
`AAAAAAATCTTTGCGTCGAGATTCTTAAAA` gave a relative absorbance of 28.1 % of maximum.
The relative absorbance of `AAAAAATCGGGGATCCGGGCGGTTGCAAAA` is reported as 33.1 % of maximum.
With `AAAAAATTCGTATCTGTACCCTATGCAAAA` the relative absorbance was 45.7 % of maximum.
`AAAAAATAGACCCTGACCCACCATTGAAAA` gave a relative absorbance of 42.4 % of maximum.
`AAAAAAGTTTCTGCTTTCCCTTTCGTAAAA` has a relative absorbance of 30.6 % of maximum.
`AAAAAAGGCCTTCGCTCGTGTTTACGAAAA` gave a relative absorbance of 28.7 % of maximum.
The relative absorbance of `AAAAAATGTGCCCGTGTGTGCTCGCGAAAA` is reported as 32.8 % of maximum.
For `AAAAAAGGCTCCGGCCCCCAATCGCAAAAA`, the relative absorbance was 31.1 % of maximum.
With `AAAAAACCGTATGTATATCTATATGTAAAA` the relative absorbance was 34.9 % of maximum.
`AAAAAAGCTTCTCATGTTGTCTTAGGAAAA` has a relative absorbance of 33.5 % of maximum.
With `AAAAAAACTTTCTATTCTGGATAAGTAAAA` the relative absorbance was 59.6 % of maximum.
With `AAAAAAAGTTCGCGGATTTCGGCCATAAAA` the relative absorbance was 59.1 % of maximum.
`AAAAAATGGGGCTCTGGCCCACCGTAAAAA` gave a relative absorbance of 40.7 % of maximum.
With `AAAAAACGTATTGATGTCTATTTCAAAAAA` the relative absorbance was 27.9 % of maximum.
`AAAAAATGGATCTTTACTTTAGGCCAAAAA` has a relative absorbance of 65.5 % of maximum.
`AAAAAAAGTTACCAGTACGCGTCGGGAAAA` gave a relative absorbance of 52.3 % of maximum.
For `AAAAAATTTTGTGGTGTTTCGCCACCAAAA`, the relative absorbance was 29.7 % of maximum.
For `AAAAAATCTTCACCTCACTTCGGTTTAAAA`, the relative absorbance was 35.6 % of maximum.
`AAAAAAGCTAGTGCTGCCACCAACGTAAAA` gave a relative absorbance of 38.4 % of maximum.
The relative absorbance of `AAAAAACCGCTTACATTGCGTTGTCGAAAA` is reported as 26.4 % of maximum.

Block 2
Target: Sal-like protein 4, full length isoform A (SALL4, Homo sapiens, UniProt Q9UJQ4, residues 1-1053)
UniProt Q9UJQ4, sequence (whole entry, looked up): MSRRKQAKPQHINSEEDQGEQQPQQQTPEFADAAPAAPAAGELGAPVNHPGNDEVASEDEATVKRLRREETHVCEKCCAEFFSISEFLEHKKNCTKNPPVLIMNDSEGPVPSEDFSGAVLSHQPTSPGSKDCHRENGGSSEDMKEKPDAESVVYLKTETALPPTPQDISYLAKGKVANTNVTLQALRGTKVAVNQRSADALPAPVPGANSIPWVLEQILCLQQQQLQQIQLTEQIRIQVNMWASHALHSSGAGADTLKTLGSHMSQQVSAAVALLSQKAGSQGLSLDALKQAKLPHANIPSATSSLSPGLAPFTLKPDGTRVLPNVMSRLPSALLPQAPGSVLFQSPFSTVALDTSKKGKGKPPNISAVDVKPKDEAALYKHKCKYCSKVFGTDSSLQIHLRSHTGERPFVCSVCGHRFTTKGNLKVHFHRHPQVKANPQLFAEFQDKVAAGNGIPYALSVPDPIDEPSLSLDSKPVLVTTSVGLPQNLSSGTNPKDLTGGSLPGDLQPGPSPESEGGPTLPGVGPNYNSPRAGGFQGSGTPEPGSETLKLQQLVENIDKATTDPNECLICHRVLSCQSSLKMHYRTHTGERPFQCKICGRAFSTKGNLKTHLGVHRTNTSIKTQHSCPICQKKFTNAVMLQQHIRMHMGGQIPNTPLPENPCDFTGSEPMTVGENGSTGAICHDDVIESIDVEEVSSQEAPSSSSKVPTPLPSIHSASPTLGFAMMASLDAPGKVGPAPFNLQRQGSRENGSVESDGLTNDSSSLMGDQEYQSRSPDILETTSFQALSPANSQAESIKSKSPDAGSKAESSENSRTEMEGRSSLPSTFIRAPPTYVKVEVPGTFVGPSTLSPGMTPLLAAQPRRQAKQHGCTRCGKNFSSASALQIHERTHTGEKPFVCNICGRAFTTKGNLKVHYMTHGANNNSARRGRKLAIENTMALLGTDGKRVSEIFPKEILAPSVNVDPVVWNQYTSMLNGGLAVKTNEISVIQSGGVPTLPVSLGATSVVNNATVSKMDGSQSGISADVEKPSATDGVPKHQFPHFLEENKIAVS
Technique: universal PBM
Molecule type: double-stranded DNA, one strand shown
Matrix: in vitro
Tested at: 600 nM
Notes: 8-mer, flanks averaged, mean of replicates
Direction: higher = stronger binding
`CGAGGTTC` has an E-score of -0.054.
`AATGAAAT` has an E-score of 0.326.
For `CTAATCCA`, the E-score was 0.102.
For `AACCGAAG`, the E-score was 0.0494.
`TAAGCTGA` gave an E-score of 0.0302.
`GCTGGGTA` gave an E-score of -0.207.
With `CATACCGC` the E-score was -0.0716.
With `GTGTTACA` the E-score was 0.122.
`ATCTAGAC` gave an E-score of -0.0194.
`AAGGCTTG` gave an E-score of -0.0872.
For `CAGCGCGA`, the E-score was -0.232.
For `CGTTAAGA`, the E-score was 0.00182.
For `GACAAGAA`, the E-score was 0.154.
For `ACGCCTCG`, the E-score was -0.257.
The E-score of `ACCTCACT` is reported as 0.0152.
The E-score of `ATTTAGGA` is reported as 0.155.
For `AACTTGCC`, the E-score was -0.0476.
The E-score of `AGCACTCC` is reported as -0.0925.
With `CTGTCAGC` the E-score was -0.143.
With `CAGTCCCA` the E-score was -0.195.
With `CCATTTCA` the E-score was 0.0914.
`CCATACAC` gave an E-score of -0.0351.
`AAGTTCGT` has an E-score of -0.0651.
The E-score of `AAATTCAA` is reported as 0.32.
`AAAATCTC` has an E-score of 0.125.

Block 3
Oligonucleotide: GGCCTGCGCAGGCC (dsDNA)
Technique: EMSA
Molecule type: double-stranded DNA, one strand shown
It gave “no binding” for binding (ZMYND11 1-95 (Homo sapiens, UniProt Q15326)).
The binding was “binds” (KAT6A 1-85 (Homo sapiens, UniProt Q92794)).
The binding was “no binding” (KAT6A 85-181 (Homo sapiens, UniProt Q92794)).

Block 4
Target: CCNB2, cyclin fold, Cln2 fusion (human)
Technique: yeast growth competition, sequencing
Matrix: yeast
Notes: weak parent motif
Relative to: not given
Direction: higher = stronger binding
Starting sequence: E2F1 docking peptide (human); PPVKRRLDLETDH; partner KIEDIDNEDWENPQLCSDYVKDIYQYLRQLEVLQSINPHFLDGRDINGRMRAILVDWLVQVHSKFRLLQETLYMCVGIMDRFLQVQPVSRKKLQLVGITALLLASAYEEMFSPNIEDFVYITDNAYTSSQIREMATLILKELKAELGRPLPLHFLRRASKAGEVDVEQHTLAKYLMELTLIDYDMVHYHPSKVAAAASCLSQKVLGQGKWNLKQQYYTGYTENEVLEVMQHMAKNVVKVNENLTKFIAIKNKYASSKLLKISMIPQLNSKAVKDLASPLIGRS
Under “normalised enrichment score”, `D8V` is recorded as 0.505.
For `D12M`, “normalised enrichment score” read 0.403.
`R5K`: “normalised enrichment score” 0.0381.
For `R5H`, “normalised enrichment score” read -0.0578.
`R6P`: “normalised enrichment score” -0.261.
Under “normalised enrichment score”, `V3E` is recorded as 0.31.
`V3I`: “normalised enrichment score” 0.387.
`H13L` — result for “normalised enrichment score”: 0.686.
`H13F`: “normalised enrichment score” 0.606.
`V3C` — result for “normalised enrichment score”: 0.5.
For `H13S`, “normalised enrichment score” read 0.594.
`D12F` — result for “normalised enrichment score”: 0.943.
For `L7V`, “normalised enrichment score” read -0.0472.
`P2Y` — result for “normalised enrichment score”: 0.561.
`T11I` — result for “normalised enrichment score”: -0.333.
`L7F` — result for “normalised enrichment score”: -0.241.
`V3Q`: “normalised enrichment score” 0.179.
For `P1D`, “normalised enrichment score” read 0.409.
For `R5L`, “normalised enrichment score” read -0.186.
`K4F`: “normalised enrichment score” 0.0719.
For `T11Y`, “normalised enrichment score” read 1.42.
Under “normalised enrichment score”, `D12H` is recorded as -0.16.
`D8C`: “normalised enrichment score” 0.256.

Block 5
Target: RNA binding protein fox-1 homolog 2, RRM domain, GST-SBP tag (RBFOX2, Homo sapiens, UniProt O43251-10, residues 100-194)
Technique: RNA Bind-n-Seq
Molecule type: RNA
Matrix: in vitro
Tested at: 365 nM
Notes: natural RNA segment, single round, ends assumed
Relative to: no-protein control
Direction: higher = stronger binding
Target sequence (chain): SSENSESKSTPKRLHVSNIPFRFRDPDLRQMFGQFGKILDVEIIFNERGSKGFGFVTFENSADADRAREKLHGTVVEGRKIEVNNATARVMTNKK
`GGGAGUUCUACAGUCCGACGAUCUUCCAUGUCCUAGGCAAGCCACUUGUUAACCCUGAGUGACAAUCUUUAUAAAUCAUUGUUAAUUCAGAGAUUUGUACGUGAGAAAACAACAACAAAAUUAGAGACUAUCUUGGAAUUCUCGGGUGCCAA` — result for “RBNS enrichment (R)”: 0.381.
For `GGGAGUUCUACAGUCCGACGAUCGACUCUUUACUCAGGUGCAUGGUUACAGCCCACAGGGAGGCAUGGAGUGCCAUGGAAGGAUUCGCCACUACCCAGACCUUGUUUUUUGUUGUAUUUUGGAAGACAGGUUUUGGAAUUCUCGGGUGCCAA`, “RBNS enrichment (R)” read 2.14.
Under “RBNS enrichment (R)”, `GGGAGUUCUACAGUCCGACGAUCCACAUCAUGAUUCCCGACGUGAGUUAGAUGAGGGAGAGUUUGUGUAACUCCACACCCAGGAGGGUAAGCCACUUUAUUAUCAUGCUUUGGGGCUGUGCUUAAGAAUUUAAUGGAAUUCUCGGGUGCCAA` is recorded as 0.415.
Under “RBNS enrichment (R)”, `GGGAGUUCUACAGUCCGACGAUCAGGGUAGAACCUGGAACCACAGUUGUUGCUGACCUGCUGGAAUGAAGUCAGAGUAUCAUCUAAAGUUAAGUAGACCCAAGCAAGACAGGGUCUUAAGGCCUGGGUUUAAGUGGAAUUCUCGGGUGCCAA` is recorded as 6.5.
`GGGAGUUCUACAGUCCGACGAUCGAAGCAUGAUGACCCACCUGUCUGGGAAGAGAAAACCUCAAGAAGGCAAAGUGCAGUGCGUGUUUGUGGUCAAGAUGAGGGUGUUAAGGGAUGUUGGAGUCUGGUGUAGAUGGAAUUCUCGGGUGCCAA`: “RBNS enrichment (R)” 4.19.
`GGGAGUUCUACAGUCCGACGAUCAAUCUAUCUAUAGACUGUAGUAAGAUGCAAUGUGGCUCUUUUCUUUUAGGUUGUGUGCAGUUGAUAUUUAACAUUGAUUUAUUUUUGAUCAUUUAAGUAAUAGUUAGUAAUGGAAUUCUCGGGUGCCAA`: “RBNS enrichment (R)” 1.74.
`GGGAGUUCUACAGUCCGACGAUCGUACAUAAUGUACCAUCCCAUGUGGAAUCUGUGAGUGUCCUCUUAAGUAGCGUGGGCUAGCCAAUCUGCCGUUCAUGGUGUAUUGUAAACUCCGAAUUCCAUAUGUAAUAUGGAAUUCUCGGGUGCCAA`: “RBNS enrichment (R)” 0.207.
`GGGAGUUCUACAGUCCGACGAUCCAAGAAUAAAAGCCUCUAUGAUCCAGAGUUGCUAUGCACCAAAUUUUGAUGCCUUUUAAAUACCUUGAUGCCUAUAGCAUUAGAAAUGCUUUCCUAUUUAAAACAGGUUAUGGAAUUCUCGGGUGCCAA` — result for “RBNS enrichment (R)”: 0.546.
Under “RBNS enrichment (R)”, `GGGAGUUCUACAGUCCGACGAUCGCUCUUGGAACCCUCCAGAGGAAGAGGCAAGCGUUUGACUUCCCCUUUACCACCUGAGGCCUCCUUAUAUCUCUUCCCAGAGUAAGCUUUGGGAUUGUAGACAUGUGGGAUGGAAUUCUCGGGUGCCAA` is recorded as 0.179.
`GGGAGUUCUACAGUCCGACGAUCUUUAAUUUAAAAGAAUGAUUAUCUGUUUUCUCCUUUUAGAAAAAGAGUCUAAGAAACACAGCAUGUGAAGAACAUUAGAUUUAUACAUUCCAGAAUCUCUGCUCUCAGAGUGGAAUUCUCGGGUGCCAA` — result for “RBNS enrichment (R)”: 2.84.
Under “RBNS enrichment (R)”, `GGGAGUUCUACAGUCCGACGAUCGCUCCUGCACUUACUUGCUUAUUUGACAACGUUUCAGCGACUCCGUUGGCCACUCCGAGAGGUGGGCCAGUCUGUGGAUCAGAGAUGCACCACCAAGCCAAGGGAACCUGUGGAAUUCUCGGGUGCCAA` is recorded as 0.674.
`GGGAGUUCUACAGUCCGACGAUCUGGGCCGUGGCUUUCAGUUCUCAGCACAGACAUCUGUGUUUUUCUCGUCCAACCCUAAGCCUCUUCCUUAAGGUUCUUGUGACAGAUCCAGUUCAGGGAGGAGGCACUGAUGGAAUUCUCGGGUGCCAA` — result for “RBNS enrichment (R)”: 0.253.

Excerpt of the above (block 1):
The relative absorbance of `AAAAAATCGGGGATCCGGGCGGTTGCAAAA` is reported as 33.1 % of maximum.
With `AAAAAATTCGTATCTGTACCCTATGCAAAA` the relative absorbance was 45.7 % of maximum.
`AAAAAATAGACCCTGACCCACCATTGAAAA` gave a relative absorbance of 42.4 % of maximum.
`AAAAAAGTTTCTGCTTTCCCTTTCGTAAAA` has a relative absorbance of 30.6 % of maximum.
`AAAAAAGGCCTTCGCTCGTGTTTACGAAAA` gave a relative absorbance of 28.7 % of maximum.
The relative absorbance of `AAAAAATGTGCCCGTGTGTGCTCGCGAAAA` is reported as 32.8 % of maximum.
For `AAAAAAGGCTCCGGCCCCCAATCGCAAAAA`, the relative absorbance was 31.1 % of maximum.
With `AAAAAACCGTATGTATATCTATATGTAAAA` the relative absorbance was 34.9 % of maximum.
`AAAAAAGCTTCTCATGTTGTCTTAGGAAAA` has a relative absorbance of 33.5 % of maximum.
With `AAAAAAACTTTCTATTCTGGATAAGTAAAA` the relative absorbance was 59.6 % of maximum.
